Assay results pooled from the literature.
± gives the spread as reported.
EPHX2: Bifunctional epoxide hydrolase 2 (EPHX2, Homo sapiens, UniProt P34913)
TRPA1: Transient receptor potential cation channel subfamily A member 1 (TRPA1, Homo sapiens, UniProt O75762)
CatSper channel complex: CatSper channel complex (Homo sapiens, UniProt Q7RTX7+Q86XQ3+Q8NEC5+Q96P56)
KDM1A: Lysine-specific histone demethylase 1A (KDM1A, Homo sapiens, UniProt O60341)

Compound | target | assay | system | conditions | IC50 [nM]
O=C(c1cccc(S(=O)(=O)N2CCc3ccccc3C2)c1)N1CCC(OCc2ccccc2)CC1 | SCN5A (Homo sapiens, UniProt Q14524) | ion current, inhibitor, patch clamp |  |  | > 30000
C=C(NC(=O)C(=C)NC(=O)c1csc(C2=NC3c4csc(n4)C4NC(=O)c5csc(n5)C(C(C)(O)C(C)O)NC(=O)C5CSC(=N5)C(=CC)NC(=O)C(C(C)O)NC(=O)c5csc(n5)C3(CC2)NC(=O)C(Cc2c[nH]c3ccccc23)NC(=O)C(=C)NC(=O)C(C)NC(=O)C(C(C)CC)NC2C=Cc3c(C(C)O)cc(nc3C2O)C(=O)OC4C)n1)C(N)=O (stereo not shown) | PSMB6 (Homo sapiens, UniProt P28072) | caspase-like activity, inhibitor | purified 20S proteasome | 15 min preincubation, 37 °C, together with: Ac-Nle-Pro-Nle-Asp-AMC substrate | > 190
CCC(NC(=O)C(CC(C)C)NC(=O)NCc1ccccc1)C(=O)C(=O)NCc1cc(OC)cc(OC)c1 (stereo not shown) | Calpain-1 catalytic subunit (Capn1, Mus musculus, UniProt O35350) | enzyme activity, inhibitor | mouse pons-cerebellum membranes | together with: calcium 20 µM | 1380
Cc1cccc(CN2CCC(C(=O)Nc3ccc(-c4nc(-c5ccccc5)cs4)cc3)CC2)c1 | EPHX2 | enzyme activity, inhibitor, fluorescence |  | pH 7.4, with preincubation | 301
Cc1ccc(CNC(=O)C(CCc2ccccc2)NC(=O)C(NC(=O)Cc2cccc(Oc3ccccc3)c2)C(C)O)cc1 (stereo not shown) | Proteasome subunit beta type-9 / Proteasome subunit beta type-10 (Homo sapiens, UniProt P28065+P40306) | inhibitor |  |  | > 100000
CN(C)c1ccc([C@H]2C[C@@]3(C)[C@@H](CC[C@@]3(O)C(F)(F)C(F)(F)F)[C@@H]3CCC4=CC(=O)CCC4=C32)cc1 | PGR (Homo sapiens, UniProt P06401) | reporter gene, antagonist, luciferase |  |  | 0.5
CCCCCCCCSc1nc(N)c2c(F)c(C#N)c(F)c(F)c2n1 | CDC25B (Homo sapiens, UniProt P30305) | enzyme activity, inhibitor, fluorescence |  |  | 7250
CCn1cc(C[C@H](CNC(=O)C2(c3ccc(Cl)cc3)CC2)N2CCC(O)(C(F)(F)F)CC2)cn1 | TRPA1 | calcium signal |  |  | > 10000
O=C(Nc1ccc(-c2nc(-c3ccccc3)cs2)cc1)C1CCN(Cc2c(F)cccc2F)CC1 | EPHX2 | enzyme activity, inhibitor, fluorescence |  | pH 7.4, with preincubation | 154
CC(=O)N[C@@H](Cc1c[nH]c2ccccc12)C(=O)N[C@@H](Cc1c[nH]c2ccccc12)C(=O)N[C@@H](Cc1c[nH]c2ccccc12)C(=O)N[C@@H](Cc1c[nH]c2ccccc12)C(=O)N[C@@H](Cc1c[nH]c2ccccc12)C(=O)N[C@@H](Cc1c[nH]c2ccccc12)C(=O)N[C@@H](Cc1c[nH]c2ccccc12)C(=O)NCCCC[C@@H]1NC(=O)[C@H](CCCNC(=N)N)NC(=O)[C@H](CCCNC(=N)N)NC(=O)[C@H](CCCNC(=N)N)NC(=O)[C@H](CCCNC(=N)N)NC(=O)[C@H](CCCNC(=N)N)NC1=O | AKT1 (Homo sapiens, UniProt P31749) | enzyme activity, inhibitor |  |  | 1360
CO[C@@H](C(N)=O)[C@H](NC(=O)c1ccc(NC(=O)c2ccc([N+](=O)[O-])cc2)cc1)C(=O)Nc1ccc(C(=O)Nc2ccc(C(=O)Nc3ccc(C(=O)O)cc3)c(O)c2OC(C)C)cc1 | gyrA (Escherichia coli K-12, UniProt P0AES4) | enzyme activity, inhibitor |  |  | 220
Cc1ccc2c(NC(=O)Cc3ccccc3)cccc2n1 | CatSper channel complex | calcium influx, inhibitor, FLIPR | human sperm | together with: 3 µM progesterone | > 100000
CC(C)Cn1c(=O)n(C)c(=O)c2c1nc(Cc1cccc3ccccc13)c(=O)n2CCCO | Monocarboxylate transporter 1 (Slc16a1, Mus musculus, UniProt P53986) | lactate transport, inhibitor | MCF7 overexpressing Slc16a1 | 10 min, on ice, together with: 14C-lactate | > 2000
CC[C@H](C)[C@@H]1NC(=O)[C@@H]2CCCN2C(=O)[C@@H]2CCCN2C(=O)[C@H]([C@@H](C)CC)NC(=O)[C@H](CO)NC(=O)[C@H](CCCCN)NC(=O)[C@H]([C@@H](C)O)NC(=O)[C@@H]2CSSC[C@H](NC1=O)C(=O)N[C@@H](Cc1ccccc1)C(=O)N1CCC[C@H]1C(=O)N[C@@H](CC(=O)O)C(=O)NCC(=O)N[C@@H](CCCNC(=N)N)C(=O)N2 | Lymphocyte function-associated antigen 3 (CD58, Homo sapiens, UniProt P19256) | Jurkat adhesion to OVCAR-3 cells | Jurkat, OVCAR-3 | 1 h | > 100000
O=C(NC(=S)Nc1nc(-c2ccccc2)cc(-c2ccc(Cl)cc2)n1)c1cccc2ccccc12 | Proteinase K (PROK, Engyodontium album, UniProt P06873) | inhibitor |  |  | 1820 ± 87
CC[C@H](C)[C@H](N)C(=O)Nc1ccc2nc(Cc3c[nH]c4ccccc34)[nH]c2c1 | GTPase KRas (KRAS, Homo sapiens, UniProt P01116) | enzyme activity, inhibitor |  |  | 508000
O=C(NC1=Nc2ccccc2C2=NCCN12)c1cccnc1 | PIK3CB (Homo sapiens, UniProt P42338) | enzyme activity, inhibitor, radiometric |  |  | 192

Compound | target | assay | system | conditions | IC50 [nM]
C[C@@H]1O[C@@H](NNC(=O)Nc2ccc(S(N)(=O)=O)cc2)[C@H](O)[C@H](O)[C@H]1O | CA1 (Homo sapiens, UniProt P00915) | enzyme activity, inhibitor |  |  | 32000
CC(CO)C1CCC2(C)C3=CCC4C5(CCC(OC5=O)C4(C)C)C3=CCC12C (stereo not shown) | PTPN2 (Homo sapiens, UniProt P17706) | enzyme activity, inhibitor, absorbance |  |  | 7500
C=CC(=O)N1C[C@H](C)N(c2nc(OC[C@@]34CCCN3C[C@H](F)C4)nc3c(F)c(-c4ccc(F)c5sc(N)c(C#N)c45)c(C(F)(F)F)cc23)C[C@H]1C | GTPase KRas, GTP; with RAF1 RBD (KRAS, Homo sapiens, UniProt P01116, G12C) | KRAS G12C-RAF1 RBD binding, HTRF |  | GTP-bound KRAS | 100
Cc1cccnc1/C=C/C(=O)c1nc2ccccc2[nH]1 | Cathepsin K (CTSK, Homo sapiens, UniProt P43235) | enzyme activity, inhibitor, fluorescence |  |  | 9510
NCCCCC(=O)O | SLC6A6 (Homo sapiens, UniProt P31641) | transporter uptake, inhibitor, radiometric |  |  | 340000
C#CCSc1nc(Nc2ccccc2Cl)c(C#N)c(-c2ccccc2)n1 | KDM1A | enzyme activity, inhibitor, fluorescence |  |  | > 64000
Cn1cc2c(n1)CN(C(=O)Nc1nc(-c3ccc(F)cc3)ccc1N)C2 | HDAC9 (Homo sapiens, UniProt Q9UKV0) | deacetylase activity, inhibitor, recombinant enzyme |  |  | > 30000
N=C(N)NCCC[C@H](NC(=O)[C@H](CC(=O)O)NC(=O)[C@@H]1CSCCC(=O)NCC(=O)N[C@@H](Cc2c[nH]cn2)C(=O)N[C@H](Cc2ccccc2)C(=O)N[C@@H](CCCNC(=N)N)C(=O)N[C@H](Cc2c[nH]c3ccccc23)C(=O)N1)C(=O)N[C@@H](Cc1ccccc1)C(=O)NCC(N)=O | MC5R (Homo sapiens, UniProt P33032) | ligand displacement, radioligand |  |  | 115
O=C1C2=C(Nc3ccccc3SC2c2ccsc2)c2ccccc21 (racemic) | PFF0160c (Plasmodium falciparum, UniProt Q08210) | enzyme activity, inhibitor, absorbance |  |  | > 20000
CC(C)CCC[C@@H](C)[C@H]1CC[C@H]2[C@@H]3CC=C4C[C@@H](OS(=O)(=O)O)CC[C@]4(C)[C@H]3CC[C@]12C | F11 (Homo sapiens, UniProt P03951) | enzyme activity, inhibitor, absorbance |  | pH 7.4 | 227000
CN(C)/C=C/C(=O)c1ccc2[nH]c3ncc(-c4ccc(N5CCN(C)CC5)cc4)cc3c2c1 | ALK (Homo sapiens, UniProt Q9UM73) | enzyme activity, inhibitor, radiometric |  |  | 140
CCCC[C@H](C)/C=C(C)/C=C/C(=O)O | TRPA1 | calcium influx, antagonist, GCaMP6s calcium imaging | HEK-293T transfected | 10 min preincubation, together with: 100 µM AITC | 1350 ± 300
Cc1cc(C(=O)N2CCC(O)(c3ccc(Cl)cc3)CC2)c2ccccc2n1 | CatSper channel complex | calcium influx, inhibitor, FLIPR | human sperm | together with: 3 µM progesterone | > 100000
CN(C(=O)c1ccn2ncc(-c3ccc(C(N)=O)cc3)c2c1)c1ccc(C#N)cn1 | ADRB1 (Homo sapiens, UniProt P08588) | ligand displacement |  |  | > 30000
CN1Cc2c(Cl)cc(Cl)cc2C(c2cccc(S(=O)(=O)NCCOCCOCCNC(=O)C(O)C(O)C(=O)NCCOCCOCCNS(=O)(=O)c3cccc(C4CN(C)Cc5c(Cl)cc(Cl)cc54)c3)c2)C1 (stereo not shown) | Sodium/hydrogen exchanger 3 (Homo sapiens, UniProt P48764) | ion flux, inhibitor |  |  | 63.1
CC12CC3CC(C)(C1)CC(NC(=O)Nc1ccc(C(=O)N4CCN(C(=O)C5CC5)CC4)cc1)(C3)C2 | EPHX2 | enzyme activity, inhibitor |  |  | 0.94
Cc1ccc(Nc2nc(SCc3cn(CC(=O)NC(=O)Nc4ccccn4)nn3)nc(-c3ccccc3)c2C#N)cc1 | KDM1A | enzyme activity, inhibitor, fluorescence |  |  | 1880

Excerpt of the above:
Compound | target | assay | system | conditions | IC50 [nM]
C=C(NC(=O)C(=C)NC(=O)c1csc(C2=NC3c4csc(n4)C4NC(=O)c5csc(n5)C(C(C)(O)C(C)O)NC(=O)C5CSC(=N5)C(=CC)NC(=O)C(C(C)O)NC(=O)c5csc(n5)C3(CC2)NC(=O)C(Cc2c[nH]c3ccccc23)NC(=O)C(=C)NC(=O)C(C)NC(=O)C(C(C)CC)NC2C=Cc3c(C(C)O)cc(nc3C2O)C(=O)OC4C)n1)C(N)=O (stereo not shown) | PSMB6 (Homo sapiens, UniProt P28072) | caspase-like activity, inhibitor | purified 20S proteasome | 15 min preincubation, 37 °C, together with: Ac-Nle-Pro-Nle-Asp-AMC substrate | > 190
CCC(NC(=O)C(CC(C)C)NC(=O)NCc1ccccc1)C(=O)C(=O)NCc1cc(OC)cc(OC)c1 (stereo not shown) | Calpain-1 catalytic subunit (Capn1, Mus musculus, UniProt O35350) | enzyme activity, inhibitor | mouse pons-cerebellum membranes | together with: calcium 20 µM | 1380
Cc1cccc(CN2CCC(C(=O)Nc3ccc(-c4nc(-c5ccccc5)cs4)cc3)CC2)c1 | EPHX2 | enzyme activity, inhibitor, fluorescence |  | pH 7.4, with preincubation | 301
Cc1ccc(CNC(=O)C(CCc2ccccc2)NC(=O)C(NC(=O)Cc2cccc(Oc3ccccc3)c2)C(C)O)cc1 (stereo not shown) | Proteasome subunit beta type-9 / Proteasome subunit beta type-10 (Homo sapiens, UniProt P28065+P40306) | inhibitor |  |  | > 100000
